Assay results from different studies.
Parts stem from different laboratories: compare values within a part only. Several values in a cell are separate wells, animals, samples, runs or records.
Sequence of UniProt Q96L34 (whole entry, looked up): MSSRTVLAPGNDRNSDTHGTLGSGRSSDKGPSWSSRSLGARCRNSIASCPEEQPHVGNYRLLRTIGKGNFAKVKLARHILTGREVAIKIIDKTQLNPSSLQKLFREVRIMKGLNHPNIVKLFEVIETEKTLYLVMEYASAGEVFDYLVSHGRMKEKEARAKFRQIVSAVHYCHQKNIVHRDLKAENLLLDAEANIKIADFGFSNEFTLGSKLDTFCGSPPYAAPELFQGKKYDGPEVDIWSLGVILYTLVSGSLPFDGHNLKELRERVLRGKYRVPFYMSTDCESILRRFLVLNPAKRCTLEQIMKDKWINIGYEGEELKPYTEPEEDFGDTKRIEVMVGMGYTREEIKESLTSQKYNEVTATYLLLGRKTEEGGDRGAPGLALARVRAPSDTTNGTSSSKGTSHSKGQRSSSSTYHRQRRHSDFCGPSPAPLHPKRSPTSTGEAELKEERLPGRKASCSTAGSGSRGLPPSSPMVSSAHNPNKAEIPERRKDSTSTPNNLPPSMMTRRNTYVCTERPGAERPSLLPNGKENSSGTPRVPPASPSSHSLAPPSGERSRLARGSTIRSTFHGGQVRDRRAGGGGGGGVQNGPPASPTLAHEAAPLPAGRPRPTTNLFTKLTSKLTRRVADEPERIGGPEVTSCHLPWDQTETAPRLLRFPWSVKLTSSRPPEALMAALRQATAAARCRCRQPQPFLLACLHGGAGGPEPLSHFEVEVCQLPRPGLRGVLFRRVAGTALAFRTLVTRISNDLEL
Sequence of UniProt P06493 (whole entry, looked up): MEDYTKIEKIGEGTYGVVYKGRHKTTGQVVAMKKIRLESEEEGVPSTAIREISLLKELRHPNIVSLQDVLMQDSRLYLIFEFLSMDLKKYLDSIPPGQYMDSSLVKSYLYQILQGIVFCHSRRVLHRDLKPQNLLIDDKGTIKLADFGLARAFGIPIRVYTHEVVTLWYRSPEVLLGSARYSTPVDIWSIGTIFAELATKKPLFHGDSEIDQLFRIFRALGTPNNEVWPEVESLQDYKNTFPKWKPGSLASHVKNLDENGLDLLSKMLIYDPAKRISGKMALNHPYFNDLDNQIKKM
Sequence of UniProt Q86YV6 (whole entry, looked up): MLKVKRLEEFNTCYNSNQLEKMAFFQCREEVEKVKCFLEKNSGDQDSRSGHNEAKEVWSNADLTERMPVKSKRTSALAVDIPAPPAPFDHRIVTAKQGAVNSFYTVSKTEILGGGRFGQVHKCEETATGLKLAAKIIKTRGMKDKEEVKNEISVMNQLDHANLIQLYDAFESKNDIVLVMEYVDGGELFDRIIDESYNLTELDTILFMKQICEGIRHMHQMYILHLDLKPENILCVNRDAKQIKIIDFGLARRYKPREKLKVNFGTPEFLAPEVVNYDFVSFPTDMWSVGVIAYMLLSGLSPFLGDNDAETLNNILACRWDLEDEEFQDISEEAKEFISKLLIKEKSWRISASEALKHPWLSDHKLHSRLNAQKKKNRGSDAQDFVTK
Sequence of UniProt Q16832 (whole entry, looked up): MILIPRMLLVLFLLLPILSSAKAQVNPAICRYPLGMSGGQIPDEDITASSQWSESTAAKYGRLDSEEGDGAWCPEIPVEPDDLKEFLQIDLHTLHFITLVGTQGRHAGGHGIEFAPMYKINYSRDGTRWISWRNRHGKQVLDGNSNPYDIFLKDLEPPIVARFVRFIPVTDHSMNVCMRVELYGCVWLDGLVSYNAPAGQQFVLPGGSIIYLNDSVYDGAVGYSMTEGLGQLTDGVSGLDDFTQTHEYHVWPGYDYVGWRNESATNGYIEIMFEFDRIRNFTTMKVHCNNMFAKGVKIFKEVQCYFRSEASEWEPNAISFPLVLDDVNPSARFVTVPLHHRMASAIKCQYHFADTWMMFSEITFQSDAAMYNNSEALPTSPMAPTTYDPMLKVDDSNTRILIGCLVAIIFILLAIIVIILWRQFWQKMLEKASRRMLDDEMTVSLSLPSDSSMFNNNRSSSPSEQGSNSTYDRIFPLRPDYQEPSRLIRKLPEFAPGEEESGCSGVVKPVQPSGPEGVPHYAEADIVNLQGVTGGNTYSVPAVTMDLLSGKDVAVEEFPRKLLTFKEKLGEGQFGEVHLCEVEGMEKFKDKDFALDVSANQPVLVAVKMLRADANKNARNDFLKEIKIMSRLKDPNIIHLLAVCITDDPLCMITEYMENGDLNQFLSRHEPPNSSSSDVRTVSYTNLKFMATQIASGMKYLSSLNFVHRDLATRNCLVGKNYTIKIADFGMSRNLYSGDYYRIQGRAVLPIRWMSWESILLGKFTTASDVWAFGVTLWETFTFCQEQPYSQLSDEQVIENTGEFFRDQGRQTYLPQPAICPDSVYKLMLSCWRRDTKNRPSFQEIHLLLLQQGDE

Set 1 — action: inhibitor; tested at: concentration not given; with: without ssDNA
Target: DNA polymerase theta, helicase domain (POLQ, Homo sapiens, UniProt O75417)
Sequence of UniProt O75417 (whole entry, looked up): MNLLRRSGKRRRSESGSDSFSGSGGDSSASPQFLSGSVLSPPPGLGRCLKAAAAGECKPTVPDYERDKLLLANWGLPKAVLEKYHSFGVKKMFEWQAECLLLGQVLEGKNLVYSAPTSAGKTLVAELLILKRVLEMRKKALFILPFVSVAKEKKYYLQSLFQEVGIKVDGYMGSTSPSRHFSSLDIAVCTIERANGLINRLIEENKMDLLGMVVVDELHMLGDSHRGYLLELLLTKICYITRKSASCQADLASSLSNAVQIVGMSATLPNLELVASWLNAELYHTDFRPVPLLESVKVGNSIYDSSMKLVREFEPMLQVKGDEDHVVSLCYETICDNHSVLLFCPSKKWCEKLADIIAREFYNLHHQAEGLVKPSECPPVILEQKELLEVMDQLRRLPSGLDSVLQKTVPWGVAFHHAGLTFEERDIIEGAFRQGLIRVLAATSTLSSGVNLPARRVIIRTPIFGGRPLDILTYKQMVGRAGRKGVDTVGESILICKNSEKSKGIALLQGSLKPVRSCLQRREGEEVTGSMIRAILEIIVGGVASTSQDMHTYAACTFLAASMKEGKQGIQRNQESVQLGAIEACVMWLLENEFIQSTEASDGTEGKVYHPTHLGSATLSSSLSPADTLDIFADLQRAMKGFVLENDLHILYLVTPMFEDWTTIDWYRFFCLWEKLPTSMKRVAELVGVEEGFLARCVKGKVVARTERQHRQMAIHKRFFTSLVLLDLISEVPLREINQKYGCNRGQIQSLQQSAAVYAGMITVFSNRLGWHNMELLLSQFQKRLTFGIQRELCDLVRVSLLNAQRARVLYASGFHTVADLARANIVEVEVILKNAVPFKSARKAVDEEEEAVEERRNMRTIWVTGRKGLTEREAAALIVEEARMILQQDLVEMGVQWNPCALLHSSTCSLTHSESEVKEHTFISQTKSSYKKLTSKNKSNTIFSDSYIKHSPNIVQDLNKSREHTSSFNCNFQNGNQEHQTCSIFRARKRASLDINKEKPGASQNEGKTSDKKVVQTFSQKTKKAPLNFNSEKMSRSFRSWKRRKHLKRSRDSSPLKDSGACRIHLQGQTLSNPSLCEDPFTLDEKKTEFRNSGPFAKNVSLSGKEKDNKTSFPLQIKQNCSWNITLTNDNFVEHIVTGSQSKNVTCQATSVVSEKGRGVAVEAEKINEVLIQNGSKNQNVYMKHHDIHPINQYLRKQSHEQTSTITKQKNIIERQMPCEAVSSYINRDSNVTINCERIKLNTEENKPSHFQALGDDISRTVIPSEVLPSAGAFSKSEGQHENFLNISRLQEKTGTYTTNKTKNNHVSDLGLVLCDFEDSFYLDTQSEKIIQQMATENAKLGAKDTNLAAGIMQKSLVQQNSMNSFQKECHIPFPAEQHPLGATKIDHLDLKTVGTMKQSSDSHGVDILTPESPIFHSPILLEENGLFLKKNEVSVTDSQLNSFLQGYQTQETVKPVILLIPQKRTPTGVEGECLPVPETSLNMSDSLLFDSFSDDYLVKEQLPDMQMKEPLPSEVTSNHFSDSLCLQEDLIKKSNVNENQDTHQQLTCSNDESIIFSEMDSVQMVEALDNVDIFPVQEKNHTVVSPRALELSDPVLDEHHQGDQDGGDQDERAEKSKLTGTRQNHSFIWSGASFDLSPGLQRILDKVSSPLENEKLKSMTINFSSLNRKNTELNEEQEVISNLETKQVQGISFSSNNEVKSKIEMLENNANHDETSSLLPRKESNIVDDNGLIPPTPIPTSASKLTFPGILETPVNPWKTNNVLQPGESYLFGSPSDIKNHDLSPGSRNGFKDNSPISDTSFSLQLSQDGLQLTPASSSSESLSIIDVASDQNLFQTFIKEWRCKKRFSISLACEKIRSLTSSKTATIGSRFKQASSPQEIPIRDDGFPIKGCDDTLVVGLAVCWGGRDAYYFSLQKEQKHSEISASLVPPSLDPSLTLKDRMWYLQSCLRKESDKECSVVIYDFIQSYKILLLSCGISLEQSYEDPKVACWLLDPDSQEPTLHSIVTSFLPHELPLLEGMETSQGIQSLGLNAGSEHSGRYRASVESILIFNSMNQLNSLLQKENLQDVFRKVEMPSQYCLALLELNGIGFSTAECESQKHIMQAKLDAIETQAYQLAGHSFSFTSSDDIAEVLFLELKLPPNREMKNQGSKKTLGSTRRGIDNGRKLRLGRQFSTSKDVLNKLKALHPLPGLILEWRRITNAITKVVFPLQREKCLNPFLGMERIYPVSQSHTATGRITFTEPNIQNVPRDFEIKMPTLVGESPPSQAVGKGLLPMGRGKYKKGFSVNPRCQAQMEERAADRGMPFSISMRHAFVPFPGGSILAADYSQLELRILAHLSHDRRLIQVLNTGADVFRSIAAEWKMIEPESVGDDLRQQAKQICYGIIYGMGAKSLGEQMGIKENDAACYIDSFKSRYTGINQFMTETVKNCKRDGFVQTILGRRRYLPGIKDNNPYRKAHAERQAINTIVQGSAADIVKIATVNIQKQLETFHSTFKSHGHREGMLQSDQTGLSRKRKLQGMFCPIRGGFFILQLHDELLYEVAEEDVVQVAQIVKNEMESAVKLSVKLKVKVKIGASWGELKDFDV
`Cc1ccc(NC(=O)CSc2ncc(S(=O)(=O)c3ccc(C(C)C)cc3)c(=O)[nH]2)cc1C` has a remaining activity of 88.6% and 95.6%.
The remaining activity of `Cc1ccc(-c2n[nH]c3c2C(c2cccc(O)c2)N(c2ccc(C(=O)O)cc2)C3=O)cc1` (centres unmarked) is reported as 59.7% and 56.6%.
With `CC(=O)[C@]1(O)Cc2c(O)c3c(c(O)c2[C@@H](O[C@H]2C[C@H](N)[C@H](O)[C@H](C)O2)C1)C(=O)c1ccccc1C3=O` the remaining activity was 99.5% and 99.7% and 102%.
With `N#Cc1c(O)c2c(-c3ccc(-c4ccccc4O)cc3)csc2[nH]c1=O` the remaining activity was 48.1% and 48.3%.

Set 2 — cell line: HaCaT; tested at: 100 µM; time: 18 h
For `C=CCc1ccc(O)c(-c2cc(CC=C)ccc2O)c1`, the viability was 17.8%.
With `Nc1nnc(-c2cccc(Cl)c2Cl)c(N)n1` the viability was 110%.
`COc1ccc([C@@H]2Sc3ccccc3N(CCN(C)C)C(=O)[C@@H]2OC(C)=O)cc1` gave a viability of 84.2%.
The viability of `CCCCC(CC)COC(=O)CC(C(=O)OCC(CC)CCCC)S(=O)(=O)O` (centres unmarked) is reported as 38.2%.

Set 3 — observed: enzyme activity; action: inhibitor; tested at: 0.5 µM; reference: control
Structure (SMILES): COc1cc2c(cc1OC)-c1[nH]nc(Nc3cccc(F)c3)c1C2
MAP/microtubule affinity-regulating kinase 4 (MARK4, Homo sapiens, UniProt Q96L34) — remaining activity: 70.6%.
Hepatocyte growth factor receptor (MET, Homo sapiens, UniProt P08581) — remaining activity: 97.8%.
The remaining activity was 95.3% (RAC-beta serine/threonine-protein kinase (AKT2, Homo sapiens, UniProt P31751)).
The remaining activity was 94.3% (Mitogen-activated protein kinase 14 (MAPK14, Homo sapiens, UniProt Q16539)).
The remaining activity was 92.6% (Cyclin-dependent kinase 1, with cyclin A (CDK1, Homo sapiens, UniProt P06493)).
For Serine/threonine-protein kinase PAK 3 (PAK3, Homo sapiens, UniProt O75914): remaining activity read 93.1%.
The remaining activity was 60.6% (Tyrosine-protein kinase TXK (TXK, Homo sapiens, UniProt P42681)).
For Calcium/calmodulin-dependent protein kinase type IV (CAMK4, Homo sapiens, UniProt Q16566): remaining activity read 106%.
Calcium/calmodulin-dependent protein kinase type 1B (PNCK, Homo sapiens, UniProt Q6P2M8) — remaining activity: 98%.
Dual specificity protein kinase CLK3 (CLK3, Homo sapiens, UniProt P49761) — remaining activity: 96.5%.
Serine/threonine-protein kinase tousled-like 2 (TLK2, Homo sapiens, UniProt Q86UE8) — remaining activity: 103%.
It gave 83.6% for remaining activity (Misshapen-like kinase 1 (MINK1, Homo sapiens, UniProt Q8N4C8)).
It gave 110% for remaining activity (Discoidin domain-containing receptor 2 (DDR2, Homo sapiens, UniProt Q16832)).
The remaining activity was 99.2% (Serine/threonine-protein kinase MRCK beta (CDC42BPB, Homo sapiens, UniProt Q9Y5S2)).

Set 4 — observed: cell-free assay; method: competition with immobilised ligand; tested at: 1 µM
SMILES: CN(C)C(=O)Cn1cc(-c2nc([C@@](C)(c3ccc(-c4cnc(N)nc4)cc3)C3CC3)no2)cn1
The remaining binding was 100% (Epidermal growth factor receptor (EGFR, Homo sapiens, UniProt P00533, del747-750/T751S)).
For Epidermal growth factor receptor (EGFR, Homo sapiens, UniProt P00533, T790M): remaining binding read 100%.
For Serine/threonine-protein kinase Nek5 (NEK5, Homo sapiens, UniProt Q6P3R8): remaining binding read 89%.
For Myosin light chain kinase family member 4 (MYLK4, Homo sapiens, UniProt Q86YV6): remaining binding read 100%.
For Casein kinase I isoform delta (CSNK1D, Homo sapiens, UniProt P48730): remaining binding read 96%.
The remaining binding was 75% (Non-receptor tyrosine-protein kinase TYK2, JH1 (TYK2, Homo sapiens, UniProt P29597)).
Receptor-type tyrosine-protein kinase FLT3, autoinhibited (FLT3, Homo sapiens, UniProt P36888) — remaining binding: 82%.

A few entries again (set 4):
The remaining binding was 100% (Epidermal growth factor receptor (EGFR, Homo sapiens, UniProt P00533, del747-750/T751S)).
For Epidermal growth factor receptor (EGFR, Homo sapiens, UniProt P00533, T790M): remaining binding read 100%.
